Measurements gathered from unrelated publications.
Protocols differ between the studies behind these lines.

SMILES	assay	system	conditions	adverse event incidence
CNC(=O)c1ccc(-c2cnc3ncc(Cc4ccc5ncccc5c4)n3n2)cc1F	phase 1 clinical trial, measured: peripheral edema	gastric cancer expansion cohort	oral, 600 mg twice daily, grade 3 or 4	0%
NCCONC(=O)[C@@H]1CC[C@@H]2CN1C(=O)N2OS(=O)(=O)O	measured: leading to permanent discontinuation	healthy Chinese men	intravenous, 2 g, treatment-emergent	0%
O=C1CCc2ccc(OCCCCN3CCN(c4cccc(Cl)c4Cl)CC3)cc2N1	measured: Akathisia	genotyped patients, CYP2D6 poor metabolizers	dose not given, long-acting oral or depot	0%
CC(=O)O[C@H]1C(=O)[C@@]2(C)[C@H]([C@H](OC(=O)c3ccccc3)[C@]3(O)C[C@H](OC(=O)[C@H](O)[C@@H](NC(=O)c4ccccc4)c4ccccc4)C(C)=C1C3(C)C)[C@]1(OC(C)=O)CO[C@@H]1C[C@@H]2O	measured: Vomiting	patients with advanced solid tumours	intravenous, dose not given, grade 3 and 4, possibly related to drug	2%
Cc1c(C(=O)O)ccc2c3n(nc12)[C@@H]1[C@H](C3)N(CC2CC2)[C@@]2(C(=O)Nc3cc(Cl)ccc32)[C@H]1c1cccc(Cl)c1F	phase Ia trial, measured: Thrombocytopenia	cancer patients	oral, dose not given, all patients grade ≥3	27.8%
Cc1ccc(Sc2ccccc2N2CCNCC2)c(C)c1	TEAE dysphoria	healthy adult men	oral, 10 mg single dose, 8 nights, fed	0%
CC(C)n1c(Nc2cccnc2)nc2cnc(Nc3ccc(N4CCN(C)CC4)cc3)nc21	measured: Toothache	healthy male subjects	oral, 100 mg, with: gemfibrozil	7.1%
CC[C@H](C)CCCCC(=O)N[C@@H](CCN)C(=O)N[C@H](C(=O)N[C@@H](CCN)C(=O)N[C@H]1CCNC(=O)[C@H]([C@@H](C)O)NC(=O)[C@H](CCN)NC(=O)[C@H](CCN)NC(=O)[C@H](CC(C)C)NC(=O)[C@@H](Cc2ccccc2)NC(=O)[C@H](CCN)NC1=O)[C@@H](C)O	measured: dry mouth	mild renal insufficiency	intravenous, 0.75 mg/kg	14.3%

Repeated from above:
SMILES	assay	system	conditions	adverse event incidence
O=C1CCc2ccc(OCCCCN3CCN(c4cccc(Cl)c4Cl)CC3)cc2N1	measured: Akathisia	genotyped patients, CYP2D6 poor metabolizers	dose not given, long-acting oral or depot	0%
